Assay results pooled from the literature.
A part holds a random share of what one study measured.
Sequence of UniProt P37173 (whole entry, looked up): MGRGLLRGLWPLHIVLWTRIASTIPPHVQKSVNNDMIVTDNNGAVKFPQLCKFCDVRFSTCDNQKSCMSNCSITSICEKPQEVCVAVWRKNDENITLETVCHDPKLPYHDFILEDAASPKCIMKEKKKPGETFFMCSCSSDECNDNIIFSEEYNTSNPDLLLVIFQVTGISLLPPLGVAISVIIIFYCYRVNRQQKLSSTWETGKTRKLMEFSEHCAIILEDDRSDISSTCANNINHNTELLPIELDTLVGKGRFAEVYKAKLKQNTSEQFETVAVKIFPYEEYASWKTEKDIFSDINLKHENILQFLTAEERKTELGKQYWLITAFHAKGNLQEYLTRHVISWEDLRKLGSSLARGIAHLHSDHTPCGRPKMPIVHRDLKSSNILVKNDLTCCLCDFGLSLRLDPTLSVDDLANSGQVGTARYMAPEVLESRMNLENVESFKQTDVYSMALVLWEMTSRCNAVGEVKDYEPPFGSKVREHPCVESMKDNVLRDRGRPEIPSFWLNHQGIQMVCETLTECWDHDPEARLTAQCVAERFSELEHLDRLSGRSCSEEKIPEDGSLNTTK
Sequence of UniProt Q8NFD2 (whole entry, looked up): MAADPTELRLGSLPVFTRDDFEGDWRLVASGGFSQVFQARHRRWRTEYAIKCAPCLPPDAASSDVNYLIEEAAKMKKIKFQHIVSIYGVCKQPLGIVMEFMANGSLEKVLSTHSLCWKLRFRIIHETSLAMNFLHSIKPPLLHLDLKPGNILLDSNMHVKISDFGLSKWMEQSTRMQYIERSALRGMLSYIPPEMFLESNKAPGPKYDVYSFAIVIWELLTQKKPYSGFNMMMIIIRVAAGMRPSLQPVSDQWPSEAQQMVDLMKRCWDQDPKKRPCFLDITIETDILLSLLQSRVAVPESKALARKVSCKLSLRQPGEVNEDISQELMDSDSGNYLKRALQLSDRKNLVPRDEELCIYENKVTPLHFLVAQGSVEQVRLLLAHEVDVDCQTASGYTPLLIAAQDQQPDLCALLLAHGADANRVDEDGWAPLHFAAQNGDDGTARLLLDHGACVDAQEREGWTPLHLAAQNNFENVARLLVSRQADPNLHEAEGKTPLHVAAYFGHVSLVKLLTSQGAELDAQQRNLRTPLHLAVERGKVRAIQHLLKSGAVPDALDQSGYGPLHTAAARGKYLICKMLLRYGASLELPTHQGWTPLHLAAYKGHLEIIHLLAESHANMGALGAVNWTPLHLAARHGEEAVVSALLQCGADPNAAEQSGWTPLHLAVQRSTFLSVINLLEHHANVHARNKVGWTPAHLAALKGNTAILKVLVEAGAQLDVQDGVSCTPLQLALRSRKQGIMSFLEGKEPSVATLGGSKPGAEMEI
Sequence of UniProt Q00535 (whole entry, looked up): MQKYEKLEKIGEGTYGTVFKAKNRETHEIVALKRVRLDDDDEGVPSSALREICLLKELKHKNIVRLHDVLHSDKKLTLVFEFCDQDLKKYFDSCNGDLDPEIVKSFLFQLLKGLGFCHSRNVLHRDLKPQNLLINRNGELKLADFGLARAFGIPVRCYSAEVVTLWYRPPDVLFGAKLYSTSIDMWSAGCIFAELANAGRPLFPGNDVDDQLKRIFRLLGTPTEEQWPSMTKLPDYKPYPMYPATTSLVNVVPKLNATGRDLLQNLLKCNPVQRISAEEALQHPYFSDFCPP
Sequence of UniProt O15146 (whole entry, looked up): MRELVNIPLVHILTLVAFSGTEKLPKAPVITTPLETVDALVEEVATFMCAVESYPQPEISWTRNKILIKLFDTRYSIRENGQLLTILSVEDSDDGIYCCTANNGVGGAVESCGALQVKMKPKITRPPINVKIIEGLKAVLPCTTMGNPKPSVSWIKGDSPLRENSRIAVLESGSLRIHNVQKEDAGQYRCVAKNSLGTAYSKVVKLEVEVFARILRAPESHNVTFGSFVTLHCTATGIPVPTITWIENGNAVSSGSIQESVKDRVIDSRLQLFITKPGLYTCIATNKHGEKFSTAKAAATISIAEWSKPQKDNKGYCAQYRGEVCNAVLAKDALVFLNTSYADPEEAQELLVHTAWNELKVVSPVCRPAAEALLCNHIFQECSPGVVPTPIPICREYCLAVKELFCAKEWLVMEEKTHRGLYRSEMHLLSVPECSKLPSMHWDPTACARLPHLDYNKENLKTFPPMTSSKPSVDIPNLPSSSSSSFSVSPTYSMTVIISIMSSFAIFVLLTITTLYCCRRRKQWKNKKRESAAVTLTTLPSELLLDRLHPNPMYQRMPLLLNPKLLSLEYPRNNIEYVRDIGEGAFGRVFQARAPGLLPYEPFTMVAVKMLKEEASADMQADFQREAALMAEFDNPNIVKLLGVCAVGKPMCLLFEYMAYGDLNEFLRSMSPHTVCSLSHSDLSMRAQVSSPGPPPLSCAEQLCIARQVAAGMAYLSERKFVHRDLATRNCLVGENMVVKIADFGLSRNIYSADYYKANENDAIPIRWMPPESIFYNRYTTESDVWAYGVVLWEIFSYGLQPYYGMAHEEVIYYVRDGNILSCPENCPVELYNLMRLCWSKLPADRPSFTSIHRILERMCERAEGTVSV
Sequence of UniProt P53355 (whole entry, looked up): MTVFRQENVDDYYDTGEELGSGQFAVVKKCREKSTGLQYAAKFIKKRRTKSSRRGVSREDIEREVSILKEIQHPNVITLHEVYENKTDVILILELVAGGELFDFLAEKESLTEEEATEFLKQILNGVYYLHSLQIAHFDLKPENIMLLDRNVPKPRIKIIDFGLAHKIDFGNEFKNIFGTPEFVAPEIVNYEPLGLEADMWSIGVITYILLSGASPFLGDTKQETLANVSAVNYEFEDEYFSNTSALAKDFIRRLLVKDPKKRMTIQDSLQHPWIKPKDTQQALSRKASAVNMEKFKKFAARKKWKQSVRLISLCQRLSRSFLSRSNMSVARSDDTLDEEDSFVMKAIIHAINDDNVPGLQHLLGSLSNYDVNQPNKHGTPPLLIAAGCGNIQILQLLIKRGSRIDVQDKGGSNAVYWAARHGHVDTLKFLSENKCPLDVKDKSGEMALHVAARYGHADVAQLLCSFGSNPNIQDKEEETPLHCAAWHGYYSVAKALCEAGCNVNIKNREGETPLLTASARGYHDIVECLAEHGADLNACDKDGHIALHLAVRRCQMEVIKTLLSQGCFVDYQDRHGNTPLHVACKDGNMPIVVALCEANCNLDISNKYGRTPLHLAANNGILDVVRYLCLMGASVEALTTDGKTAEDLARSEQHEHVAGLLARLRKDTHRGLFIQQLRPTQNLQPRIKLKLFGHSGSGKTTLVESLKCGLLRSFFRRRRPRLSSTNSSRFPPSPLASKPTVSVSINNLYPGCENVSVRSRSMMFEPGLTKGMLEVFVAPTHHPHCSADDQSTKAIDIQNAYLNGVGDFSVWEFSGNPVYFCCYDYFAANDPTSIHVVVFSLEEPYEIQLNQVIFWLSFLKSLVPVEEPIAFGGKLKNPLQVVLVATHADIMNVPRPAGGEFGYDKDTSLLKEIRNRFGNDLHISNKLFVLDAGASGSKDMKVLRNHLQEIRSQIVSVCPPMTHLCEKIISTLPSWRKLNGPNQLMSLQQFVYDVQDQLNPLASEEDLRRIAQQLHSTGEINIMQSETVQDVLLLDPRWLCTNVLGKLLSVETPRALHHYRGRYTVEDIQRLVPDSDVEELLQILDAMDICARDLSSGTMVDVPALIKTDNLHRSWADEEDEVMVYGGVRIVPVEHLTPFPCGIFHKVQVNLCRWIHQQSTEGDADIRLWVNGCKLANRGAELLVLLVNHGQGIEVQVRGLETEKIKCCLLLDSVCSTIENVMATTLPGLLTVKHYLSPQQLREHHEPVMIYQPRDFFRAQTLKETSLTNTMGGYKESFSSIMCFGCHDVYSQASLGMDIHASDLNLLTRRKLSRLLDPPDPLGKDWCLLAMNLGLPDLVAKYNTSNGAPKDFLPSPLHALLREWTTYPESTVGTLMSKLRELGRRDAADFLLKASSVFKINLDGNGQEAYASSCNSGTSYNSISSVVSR
Sequence of UniProt P11802 (whole entry, looked up): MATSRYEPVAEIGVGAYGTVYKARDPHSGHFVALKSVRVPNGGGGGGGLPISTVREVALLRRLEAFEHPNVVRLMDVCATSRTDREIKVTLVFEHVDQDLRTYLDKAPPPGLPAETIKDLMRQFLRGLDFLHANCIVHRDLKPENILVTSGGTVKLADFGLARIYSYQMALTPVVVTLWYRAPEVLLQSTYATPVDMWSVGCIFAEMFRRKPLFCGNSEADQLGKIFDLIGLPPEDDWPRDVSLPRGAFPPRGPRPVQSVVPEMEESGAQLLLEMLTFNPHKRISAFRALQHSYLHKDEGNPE
Sequence of UniProt Q9BQI3 (whole entry, looked up): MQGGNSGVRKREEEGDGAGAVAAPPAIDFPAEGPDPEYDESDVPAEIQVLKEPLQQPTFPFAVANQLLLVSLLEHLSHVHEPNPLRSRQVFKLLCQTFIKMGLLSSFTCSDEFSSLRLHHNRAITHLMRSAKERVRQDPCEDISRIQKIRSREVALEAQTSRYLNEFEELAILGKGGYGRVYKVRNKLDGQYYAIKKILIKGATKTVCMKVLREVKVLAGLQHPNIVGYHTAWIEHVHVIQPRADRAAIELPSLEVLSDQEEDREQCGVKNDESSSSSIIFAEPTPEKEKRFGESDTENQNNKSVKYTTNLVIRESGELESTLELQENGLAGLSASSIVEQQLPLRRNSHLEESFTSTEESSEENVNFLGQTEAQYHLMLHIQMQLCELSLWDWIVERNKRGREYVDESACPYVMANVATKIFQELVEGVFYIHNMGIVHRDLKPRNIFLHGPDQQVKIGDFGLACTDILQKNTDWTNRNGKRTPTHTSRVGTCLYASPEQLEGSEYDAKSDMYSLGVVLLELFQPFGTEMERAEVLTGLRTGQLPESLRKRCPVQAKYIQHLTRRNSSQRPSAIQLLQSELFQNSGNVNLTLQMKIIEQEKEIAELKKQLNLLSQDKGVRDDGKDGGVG

Block 1
SMILES: COc1cc2c(Nc3ccc(Br)cc3F)ncnc2cc1OCC1CCN(C)CC1
Read-out: enzyme activity
Action: inhibitor
Tested at: 0.5 µM
Reference: control
target	remaining activity [%]
DAPK2 (Homo sapiens, UniProt Q9UIK4)	93.3
cGMP-dependent protein kinase 1, isoform beta (PRKG1, Homo sapiens, UniProt Q13976)	99.8
MAPK9 (Homo sapiens, UniProt P45984)	96.4
NEK2 (Homo sapiens, UniProt P51955)	103
GRK3 (Homo sapiens, UniProt P35626)	97.4
IKBKB (Homo sapiens, UniProt O14920)	87.7
TGFBR1 (Homo sapiens, UniProt P36897)	102
Cyclin-dependent kinase 5, with p25 (CDK5, Homo sapiens, UniProt Q00535)	97.8
OXSR1 (Homo sapiens, UniProt O95747)	100
Tyrosine-protein kinase Lyn, isoform B (LYN, Homo sapiens, UniProt P07948)	16.7
DAPK1 (Homo sapiens, UniProt P53355)	105
PRKACA (Homo sapiens, UniProt P17612)	92.8
CAMK2D (Homo sapiens, UniProt Q13557)	95.8
CHEK2 (Homo sapiens, UniProt O96017)	62.1
TGFBR2 (Homo sapiens, UniProt P37173)	102
IKBKE (Homo sapiens, UniProt Q14164)	85.8
Protein kinase C beta type, isoform beta-I (PRKCB, Homo sapiens, UniProt P05771)	89.1
Cyclin-dependent kinase 4, with cyclin D1 (CDK4, Homo sapiens, UniProt P11802)	94.8
CAMKK2 (Homo sapiens, UniProt Q96RR4)	102
STK10 (Homo sapiens, UniProt O94804)	21.3
STK39 (Homo sapiens, UniProt Q9UEW8)	97.4

Block 2
Host: human
Sample: microsomes or S9
Tested at: 2 µM
Time: 0.5 h
Compound	remaining compound
O=C(N1CCOC2(CCCC2)C1)C1(c2ccccc2)CCOCC1	12.6%
CCN(C(=O)c1cc(C)c(C)[nH]c1=O)[C@H]1COC[C@@H]1O	100%
COc1cccc2c1Oc1ccsc1C=C2C#N	80%
N#Cc1cc(-n2ccnc2-c2cc3n(n2)CCNC3)ccc1N1CCOCC1	45%
C[S+]([O-])c1nn(-c2ccc(Cl)c(Cl)c2)c(-c2ccc(Cl)c(Cl)c2)c1-n1ccnc1 (stereo not drawn)	2.22%
CCOC(=O)c1c(C)c(CCC(=O)NCCN2CCCCC2)n(C)c1C	64.3%
Cc1ccc(S(=O)(=O)N2CCCC(C(=O)Nc3ccc4c(c3)OCCO4)C2)cc1 (stereo not drawn)	65%
Clc1ccc(-c2cn3c4ccccc4n(CCN4CCCCC4)c3n2)cc1Cl	6.67%
Cc1nc(C)c(S(=O)(=O)N(C)CC(C)(C)O)s1	68.8%
CCCCN(C)C(=O)CSc1nnc2c3cc(-c4cc(C)ccc4C)nn3ccn12	72.5%

Block 3
Compound: Nc1c(C(=O)NCc2ccc(C(=O)NCCCC3CCCCC3)cc2)cnn1-c1ccccc1
Read-out: cell-free assay
Method: competition with immobilised ligand
Tested at: 0.1 µM
target	remaining binding
Aurora kinase A (AURKA, Homo sapiens, UniProt O14965)	100%
CDK8 (Homo sapiens, UniProt P49336)	96%
PIK3CG (Homo sapiens, UniProt P48736)	100%
Ribosomal protein S6 kinase alpha-2, C-terminal kinase domain (RPS6KA2, Homo sapiens, UniProt Q15349)	90%
ITK (Homo sapiens, UniProt Q08881)	93%
CSNK1G3 (Homo sapiens, UniProt Q9Y6M4)	100%
KIT (Homo sapiens, UniProt P10721, D816H)	61%
Tyrosine-protein kinase JAK2, JH1 (JAK2, Homo sapiens, UniProt O60674)	100%
EIF2AK1 (Homo sapiens, UniProt Q9BQI3)	100%
CDK14 (Homo sapiens, UniProt O94921)	100%
FLT3 (Homo sapiens, UniProt P36888, K663Q)	100%
MAK (Homo sapiens, UniProt P20794)	100%
RET (Homo sapiens, UniProt P07949, V804M)	98%
ANKK1 (Homo sapiens, UniProt Q8NFD2)	100%
BRSK1 (Homo sapiens, UniProt Q8TDC3)	94%
Aurora kinase B (AURKB, Homo sapiens, UniProt Q96GD4)	81%
FGFR3 (Homo sapiens, UniProt P22607, G697C)	87%
MUSK (Homo sapiens, UniProt O15146)	97%
Tyrosine-protein kinase ABL1, phosphorylated (ABL1, Homo sapiens, UniProt P00519, T315I)	100%
STK35 (Homo sapiens, UniProt Q8TDR2)	100%
CAMK2A (Homo sapiens, UniProt Q9UQM7)	100%

Block 4
SMILES: CC(C)n1cnc(-c2ccc(F)cc2)c1-c1ncc(C(=O)Nc2ccc(N3CCN(C)CC3)cc2)[nH]1
Method: phase 2a trial
Host: idiopathic pulmonary fibrosis patients
conditions	patients with nausea [%]
all arms, grade 1 emergent event	0
all arms, grade 4 emergent event	0
60 mg once daily, grade 1 emergent event	0
30 mg once daily, grade 3 emergent event	0
all arms, grade 5 emergent event	0

Excerpt of the above (block 2):
Compound	remaining compound
O=C(N1CCOC2(CCCC2)C1)C1(c2ccccc2)CCOCC1	12.6%
CCN(C(=O)c1cc(C)c(C)[nH]c1=O)[C@H]1COC[C@@H]1O	100%
COc1cccc2c1Oc1ccsc1C=C2C#N	80%
N#Cc1cc(-n2ccnc2-c2cc3n(n2)CCNC3)ccc1N1CCOCC1	45%
C[S+]([O-])c1nn(-c2ccc(Cl)c(Cl)c2)c(-c2ccc(Cl)c(Cl)c2)c1-n1ccnc1 (stereo not drawn)	2.22%
CCOC(=O)c1c(C)c(CCC(=O)NCCN2CCCCC2)n(C)c1C	64.3%
